Experimental data gathered from unrelated publications.
Lines come from different studies, so protocols differ. Numbers after ± are the reported error.
Chain of UniProt P22309 (whole entry, looked up): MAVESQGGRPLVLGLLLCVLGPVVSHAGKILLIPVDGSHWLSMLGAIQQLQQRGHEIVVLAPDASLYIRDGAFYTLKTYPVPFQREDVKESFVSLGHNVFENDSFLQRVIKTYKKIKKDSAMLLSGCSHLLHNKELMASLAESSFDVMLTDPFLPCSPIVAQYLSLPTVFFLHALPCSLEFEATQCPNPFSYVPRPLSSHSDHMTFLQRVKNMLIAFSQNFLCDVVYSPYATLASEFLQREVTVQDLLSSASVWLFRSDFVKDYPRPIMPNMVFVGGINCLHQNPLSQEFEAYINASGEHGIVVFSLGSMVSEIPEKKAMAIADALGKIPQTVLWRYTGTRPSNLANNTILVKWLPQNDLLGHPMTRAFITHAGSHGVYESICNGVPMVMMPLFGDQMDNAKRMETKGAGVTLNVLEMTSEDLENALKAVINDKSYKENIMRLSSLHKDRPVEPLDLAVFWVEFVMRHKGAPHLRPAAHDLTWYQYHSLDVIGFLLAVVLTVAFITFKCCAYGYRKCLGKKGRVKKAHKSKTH
Chain of UniProt P05177 (whole entry, looked up): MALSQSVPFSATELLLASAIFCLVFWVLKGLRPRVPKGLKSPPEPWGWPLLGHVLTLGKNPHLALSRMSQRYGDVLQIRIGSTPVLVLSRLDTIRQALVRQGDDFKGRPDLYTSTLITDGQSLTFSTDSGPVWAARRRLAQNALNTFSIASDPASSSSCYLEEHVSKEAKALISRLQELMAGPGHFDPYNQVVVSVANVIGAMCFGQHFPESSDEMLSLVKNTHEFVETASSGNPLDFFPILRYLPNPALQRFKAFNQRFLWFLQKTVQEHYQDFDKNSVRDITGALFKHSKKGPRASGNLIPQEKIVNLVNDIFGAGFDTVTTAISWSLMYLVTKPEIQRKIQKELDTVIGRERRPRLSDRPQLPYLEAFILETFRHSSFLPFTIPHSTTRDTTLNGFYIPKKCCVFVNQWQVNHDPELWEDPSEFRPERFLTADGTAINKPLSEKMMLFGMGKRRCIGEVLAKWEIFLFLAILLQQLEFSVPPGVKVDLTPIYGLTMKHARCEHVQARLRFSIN
Chain of UniProt P55210 (whole entry, looked up): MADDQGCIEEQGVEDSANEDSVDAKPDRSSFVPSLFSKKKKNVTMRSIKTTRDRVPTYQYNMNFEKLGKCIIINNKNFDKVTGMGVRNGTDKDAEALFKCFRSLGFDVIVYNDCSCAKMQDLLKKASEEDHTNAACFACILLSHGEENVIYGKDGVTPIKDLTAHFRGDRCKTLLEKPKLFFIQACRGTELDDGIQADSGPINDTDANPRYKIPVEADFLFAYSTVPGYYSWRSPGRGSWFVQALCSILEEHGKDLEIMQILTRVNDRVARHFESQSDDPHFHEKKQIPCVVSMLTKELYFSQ
Chain of UniProt P06276 (whole entry, looked up): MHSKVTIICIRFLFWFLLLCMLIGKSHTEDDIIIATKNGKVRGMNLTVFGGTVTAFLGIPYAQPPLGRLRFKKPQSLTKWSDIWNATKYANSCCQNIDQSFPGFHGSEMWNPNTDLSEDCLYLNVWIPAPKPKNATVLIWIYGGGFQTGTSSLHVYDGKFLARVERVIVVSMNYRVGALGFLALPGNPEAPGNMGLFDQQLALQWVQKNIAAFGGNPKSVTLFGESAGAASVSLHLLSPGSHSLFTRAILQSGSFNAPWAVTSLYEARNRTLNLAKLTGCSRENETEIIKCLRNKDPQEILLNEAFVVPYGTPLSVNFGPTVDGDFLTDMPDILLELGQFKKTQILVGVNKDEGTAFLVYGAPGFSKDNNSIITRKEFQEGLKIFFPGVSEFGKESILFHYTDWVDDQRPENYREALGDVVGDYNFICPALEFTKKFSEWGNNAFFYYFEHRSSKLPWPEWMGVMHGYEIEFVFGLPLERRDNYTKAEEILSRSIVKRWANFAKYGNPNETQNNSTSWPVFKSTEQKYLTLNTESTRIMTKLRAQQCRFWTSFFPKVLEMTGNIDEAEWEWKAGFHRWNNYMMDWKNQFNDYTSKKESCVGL
Chain of UniProt P41143 (whole entry, looked up): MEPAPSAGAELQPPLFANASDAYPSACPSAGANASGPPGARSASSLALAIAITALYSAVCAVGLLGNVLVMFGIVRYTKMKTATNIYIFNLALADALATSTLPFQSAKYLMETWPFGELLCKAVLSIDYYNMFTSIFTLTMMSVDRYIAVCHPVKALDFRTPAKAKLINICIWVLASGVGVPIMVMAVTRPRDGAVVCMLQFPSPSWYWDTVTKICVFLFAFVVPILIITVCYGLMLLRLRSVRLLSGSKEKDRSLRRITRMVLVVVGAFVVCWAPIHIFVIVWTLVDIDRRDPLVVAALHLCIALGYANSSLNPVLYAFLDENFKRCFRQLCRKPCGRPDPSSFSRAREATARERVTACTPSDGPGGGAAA

| Molecule | tested on | test | test system | conditions | quantity | value |
| --- | --- | --- | --- | --- | --- | --- |
| semaglutide | – | measured: fatal outcome | human, safety analysis set | concentration not given, 32 weeks, run-in | participants with adverse events | 0% |
| propranolol | Caco-2 | – | – | – | efflux ratio | 1.2 |
| phoxim-oxon | Bche (Rattus norvegicus, UniProt Q9JKC1) | inhibitor | rat, postnatal day 1, rat serum | – | IC50 | 0.002 µM |
| retrorsine | – | – | human whole blood | 1000 ng/mL, 60 min, 37 °C | blood-to-plasma ratio | 1.08 |
| Ac-DEVD-CHO | Caspase-7 (CASP7, Homo sapiens, UniProt P55210) | enzyme activity | – | – | Hill slope | -1.28 |
| colistimethate | – | dynamic light scattering | water | 25 °C | critical micelle concentration | 3.5 mM |
| deucravacitinib | – | multiple ascending dose | healthy human | oral, all doses pooled | subjects with influenza-like illness | 4.4% |
| maraviroc | – | – | – | – | logP | 4.37 |
| benzalkonium bromide | Cholinesterase (BCHE, Homo sapiens, UniProt P06276) | enzyme activity, inhibitor, fluorescence | – | concentration not given | inhibition | -37.8 ± 93.5% |
| maraviroc | – | – | human, tissue | oral, 300 mg twice daily, day 7, composite of medians | Cmax | 848 ng/g |
| SNC80 | Delta-type opioid receptor, with Gi3 (OPRD1, Homo sapiens, UniProt P41143) | Gi3 activation, agonist | – | – | Emax | 116 ± 2% |
| buprenorphine hydrochloride | UGT1A1 (Homo sapiens, UniProt P22309) | 4-MU glucuronidation, inhibitor | – | with: 4-MU 100 µM | IC50 | > 1000 µM |
| semaglutide | – | GLP-1R CRE luciferase bioassay | C57BL/6 mouse, male, plasma | subcutaneous, 0.4 mg/kg, 3 h, end of OGTT | plasma concentration | 863 nM |
| mitragynine | Cytochrome P450 1A2 (CYP1A2, Homo sapiens, UniProt P05177) | phenacetin O-deethylation, inhibitor | human liver microsomes | – | IC50 | > 45 µM |
| mitragynine | – | – | human liver S9 | – | CLint | 0.068 mL/min/mg protein |

Some of these lines once more:
| Molecule | tested on | test | test system | conditions | quantity | value |
| --- | --- | --- | --- | --- | --- | --- |
| maraviroc | – | – | – | – | logP | 4.37 |
